Measurements from different studies.
Every numbered part comes from another study and shows a few of its results, in no order.
Chain of UniProt P21127 (whole entry, looked up): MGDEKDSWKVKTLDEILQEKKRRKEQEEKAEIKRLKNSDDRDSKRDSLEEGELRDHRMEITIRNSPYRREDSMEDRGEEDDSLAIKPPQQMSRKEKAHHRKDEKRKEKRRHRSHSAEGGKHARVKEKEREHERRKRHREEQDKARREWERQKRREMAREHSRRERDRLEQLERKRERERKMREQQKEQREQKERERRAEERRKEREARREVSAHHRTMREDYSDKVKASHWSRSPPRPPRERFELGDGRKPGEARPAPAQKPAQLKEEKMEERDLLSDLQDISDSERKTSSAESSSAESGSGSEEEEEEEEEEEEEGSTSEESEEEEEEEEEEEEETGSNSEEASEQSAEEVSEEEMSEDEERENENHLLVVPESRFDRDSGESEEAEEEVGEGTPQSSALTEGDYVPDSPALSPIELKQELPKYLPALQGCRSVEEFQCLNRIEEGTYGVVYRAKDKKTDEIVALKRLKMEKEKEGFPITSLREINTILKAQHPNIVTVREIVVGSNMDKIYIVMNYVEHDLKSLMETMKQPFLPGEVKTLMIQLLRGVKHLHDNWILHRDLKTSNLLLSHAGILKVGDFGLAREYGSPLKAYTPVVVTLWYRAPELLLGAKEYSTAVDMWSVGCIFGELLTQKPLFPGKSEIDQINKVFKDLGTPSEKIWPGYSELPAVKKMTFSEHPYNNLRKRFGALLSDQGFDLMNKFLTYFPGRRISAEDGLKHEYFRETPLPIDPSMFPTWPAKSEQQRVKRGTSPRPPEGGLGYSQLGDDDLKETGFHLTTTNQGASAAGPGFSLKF
Chain of UniProt Q9UBE8 (whole entry, looked up): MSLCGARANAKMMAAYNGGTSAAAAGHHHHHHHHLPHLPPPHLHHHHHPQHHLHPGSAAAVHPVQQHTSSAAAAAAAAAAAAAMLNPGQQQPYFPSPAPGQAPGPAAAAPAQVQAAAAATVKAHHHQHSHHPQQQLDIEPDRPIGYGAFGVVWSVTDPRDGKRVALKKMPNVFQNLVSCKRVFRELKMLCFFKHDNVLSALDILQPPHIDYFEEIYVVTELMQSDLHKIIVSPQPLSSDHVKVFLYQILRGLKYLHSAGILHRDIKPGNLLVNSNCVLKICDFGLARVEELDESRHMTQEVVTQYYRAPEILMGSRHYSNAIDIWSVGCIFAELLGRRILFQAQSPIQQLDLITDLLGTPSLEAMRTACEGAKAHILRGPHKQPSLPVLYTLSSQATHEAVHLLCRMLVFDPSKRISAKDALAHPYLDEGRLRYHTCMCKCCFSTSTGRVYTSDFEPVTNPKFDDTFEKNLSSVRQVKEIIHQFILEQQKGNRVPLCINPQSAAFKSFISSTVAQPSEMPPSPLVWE
Chain of UniProt P54764 (whole entry, looked up): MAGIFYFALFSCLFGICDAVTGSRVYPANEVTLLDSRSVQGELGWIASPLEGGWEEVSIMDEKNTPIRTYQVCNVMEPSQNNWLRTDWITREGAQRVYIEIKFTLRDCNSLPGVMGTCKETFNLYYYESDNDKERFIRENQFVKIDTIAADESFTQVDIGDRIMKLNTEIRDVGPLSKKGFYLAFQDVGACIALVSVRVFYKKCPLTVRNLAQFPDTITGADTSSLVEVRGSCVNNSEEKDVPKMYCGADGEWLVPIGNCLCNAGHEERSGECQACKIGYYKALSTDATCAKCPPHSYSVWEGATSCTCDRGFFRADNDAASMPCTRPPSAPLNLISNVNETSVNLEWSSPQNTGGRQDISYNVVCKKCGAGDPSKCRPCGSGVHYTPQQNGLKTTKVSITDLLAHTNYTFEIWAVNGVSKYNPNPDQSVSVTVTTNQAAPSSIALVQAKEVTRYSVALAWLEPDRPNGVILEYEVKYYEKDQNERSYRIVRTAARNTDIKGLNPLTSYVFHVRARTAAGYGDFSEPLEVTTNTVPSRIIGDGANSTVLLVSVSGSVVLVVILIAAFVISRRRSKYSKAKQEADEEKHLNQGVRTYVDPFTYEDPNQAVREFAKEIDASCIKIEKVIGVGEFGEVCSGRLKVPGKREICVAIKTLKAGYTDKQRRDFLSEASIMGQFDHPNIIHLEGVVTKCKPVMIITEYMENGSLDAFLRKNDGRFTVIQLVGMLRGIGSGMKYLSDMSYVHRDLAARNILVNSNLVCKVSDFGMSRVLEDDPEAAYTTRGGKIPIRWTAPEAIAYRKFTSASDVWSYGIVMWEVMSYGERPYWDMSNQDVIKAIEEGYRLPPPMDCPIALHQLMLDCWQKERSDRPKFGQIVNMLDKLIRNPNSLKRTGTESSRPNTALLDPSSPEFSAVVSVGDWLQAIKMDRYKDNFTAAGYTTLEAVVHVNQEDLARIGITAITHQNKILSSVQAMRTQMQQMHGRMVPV
Chain of UniProt Q15569 (whole entry, looked up): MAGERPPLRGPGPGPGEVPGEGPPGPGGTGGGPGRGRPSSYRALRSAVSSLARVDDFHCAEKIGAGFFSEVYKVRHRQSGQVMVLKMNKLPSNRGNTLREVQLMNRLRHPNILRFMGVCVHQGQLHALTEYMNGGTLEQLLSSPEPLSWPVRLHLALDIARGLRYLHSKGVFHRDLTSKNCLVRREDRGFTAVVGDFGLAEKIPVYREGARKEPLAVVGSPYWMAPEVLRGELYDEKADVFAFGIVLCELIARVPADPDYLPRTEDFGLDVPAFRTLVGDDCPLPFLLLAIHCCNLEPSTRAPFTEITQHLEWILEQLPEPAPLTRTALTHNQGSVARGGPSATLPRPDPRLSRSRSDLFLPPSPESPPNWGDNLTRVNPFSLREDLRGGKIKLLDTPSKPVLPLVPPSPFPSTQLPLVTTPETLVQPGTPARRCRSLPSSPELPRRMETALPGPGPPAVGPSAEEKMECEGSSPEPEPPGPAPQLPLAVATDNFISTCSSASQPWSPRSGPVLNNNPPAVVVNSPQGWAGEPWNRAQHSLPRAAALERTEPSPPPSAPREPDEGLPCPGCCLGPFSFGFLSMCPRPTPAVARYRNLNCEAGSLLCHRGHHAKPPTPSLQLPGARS
Chain of UniProt Q8NEB9 (whole entry, looked up): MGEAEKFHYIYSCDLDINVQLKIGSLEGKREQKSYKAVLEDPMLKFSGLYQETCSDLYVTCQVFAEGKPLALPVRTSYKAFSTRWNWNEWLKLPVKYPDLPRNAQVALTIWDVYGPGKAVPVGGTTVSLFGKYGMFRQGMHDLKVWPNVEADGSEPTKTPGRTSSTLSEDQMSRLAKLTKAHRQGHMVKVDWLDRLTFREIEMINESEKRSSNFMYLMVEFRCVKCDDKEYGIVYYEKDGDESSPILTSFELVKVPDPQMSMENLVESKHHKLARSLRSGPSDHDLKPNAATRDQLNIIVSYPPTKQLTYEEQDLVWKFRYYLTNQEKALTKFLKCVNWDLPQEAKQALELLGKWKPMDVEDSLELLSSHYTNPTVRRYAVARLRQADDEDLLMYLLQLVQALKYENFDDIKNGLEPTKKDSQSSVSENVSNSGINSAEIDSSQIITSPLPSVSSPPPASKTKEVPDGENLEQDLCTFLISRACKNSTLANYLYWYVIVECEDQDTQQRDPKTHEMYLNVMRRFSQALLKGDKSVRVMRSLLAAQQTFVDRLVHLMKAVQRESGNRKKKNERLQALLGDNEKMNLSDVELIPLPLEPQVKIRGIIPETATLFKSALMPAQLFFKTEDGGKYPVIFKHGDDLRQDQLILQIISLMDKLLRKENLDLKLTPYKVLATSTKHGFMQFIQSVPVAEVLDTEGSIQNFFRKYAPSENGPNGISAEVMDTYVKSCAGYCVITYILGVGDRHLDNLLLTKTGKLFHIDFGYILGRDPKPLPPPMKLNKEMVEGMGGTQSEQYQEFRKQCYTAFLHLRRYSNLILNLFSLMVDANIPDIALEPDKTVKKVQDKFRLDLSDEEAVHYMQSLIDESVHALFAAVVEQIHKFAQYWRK
Chain of UniProt Q16620 (whole entry, looked up): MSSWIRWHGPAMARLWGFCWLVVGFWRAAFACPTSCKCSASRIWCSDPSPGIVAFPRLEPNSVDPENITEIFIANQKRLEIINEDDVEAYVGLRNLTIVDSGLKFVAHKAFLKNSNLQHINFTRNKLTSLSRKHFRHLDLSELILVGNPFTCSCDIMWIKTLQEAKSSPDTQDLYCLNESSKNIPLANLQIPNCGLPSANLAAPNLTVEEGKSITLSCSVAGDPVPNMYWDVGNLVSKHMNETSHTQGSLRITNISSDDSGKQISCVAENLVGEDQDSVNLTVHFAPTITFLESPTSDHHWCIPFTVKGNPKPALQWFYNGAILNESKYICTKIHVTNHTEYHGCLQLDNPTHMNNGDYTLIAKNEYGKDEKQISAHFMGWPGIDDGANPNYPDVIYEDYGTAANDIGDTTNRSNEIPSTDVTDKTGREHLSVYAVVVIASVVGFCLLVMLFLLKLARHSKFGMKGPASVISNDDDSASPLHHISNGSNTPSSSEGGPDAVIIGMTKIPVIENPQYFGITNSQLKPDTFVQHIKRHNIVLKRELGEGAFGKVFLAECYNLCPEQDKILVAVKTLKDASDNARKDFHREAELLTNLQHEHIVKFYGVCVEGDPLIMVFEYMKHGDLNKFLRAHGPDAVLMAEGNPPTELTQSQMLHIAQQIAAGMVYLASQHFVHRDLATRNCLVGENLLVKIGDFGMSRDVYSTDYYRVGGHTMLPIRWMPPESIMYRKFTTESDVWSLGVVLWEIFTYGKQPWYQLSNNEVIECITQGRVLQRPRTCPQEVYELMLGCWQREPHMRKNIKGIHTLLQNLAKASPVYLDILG

Series 1 — observed: cell-free assay; technique: competition with immobilised ligand; tested at: 1 µM
Compound: CCCCN(CCCC)C(=O)CN1C[C@H](c2cc(OC)c3c(c2)OCO3)[C@@H](C(=O)O)[C@@H]1CC(C)(C)CCC
target	remaining binding [%]
NLK (Homo sapiens, UniProt Q9UBE8)	100
EPHA4 (Homo sapiens, UniProt P54764)	100
LRRK2 (Homo sapiens, UniProt Q5S007, G2019S)	100
NTRK2 (Homo sapiens, UniProt Q16620)	62
EGFR (Homo sapiens, UniProt P00533, del747-752/P753S)	79.8
PIK3C3 (Homo sapiens, UniProt Q8NEB9)	49.9
TESK1 (Homo sapiens, UniProt Q15569)	100
CDK11B (Homo sapiens, UniProt P21127)	86.4

Series 2 — host: human; medium: microsomes or S9; tested at: 2 µM; time: 0.5 h
SMILES	remaining compound [%]
CCCC(=O)OCCNc1cc(SCC(=O)OCC)c2nonc2c1[N+](=O)[O-]	0.00607
Cc1cc(C[C@@H]2COC[C@@H]2NC(=O)c2cc(=O)n(-c3ccccc3)[nH]2)on1	74.6
COc1ccc(-n2ccc3cc(N4CCCCC4)ccc32)cc1Cl	95.9
CCc1ccccc1NC(=O)NCCNc1nc(C)cc(N2CCCCC2)n1	8.55
COc1cc(CNC(C)(C)C)cc(Br)c1OCc1cccs1	3.48
c1ccc(-c2nc3cccnc3nc2N2CCCCC2)cc1	5.75
O=C(NNc1nc2ccccc2s1)c1ccccc1F	37.8
O=S1(=O)N=C(NCCc2cccs2)c2ccccc21	77.8

Further values, each from its own experiment
SMILES	tested on	test	system	setting	quantity	value
CC(C)n1cnc(-c2ccc(F)cc2)c1-c1ncc(C(=O)Nc2ccc(N3CCN(C)CC3)cc2)[nH]1	–	phase 2a clinical trial	patients with idiopathic pulmonary fibrosis	30 mg once daily	patients with LDH increased TEAE	0%
N#Cc1c(Oc2ccc(F)c(NC(=O)Cc3cccc(C(F)(F)F)c3)c2)ccc2nc(NC(=O)C3CC3)sc12	L929	necroptosis protection, CCK-8	–	10 µM, together with: TNF-α-induced	viability	86.3%

For quick reference, copied from above (series 2):
SMILES	remaining compound [%]
CCc1ccccc1NC(=O)NCCNc1nc(C)cc(N2CCCCC2)n1	8.55
